# Measurements collected from several papers.
# Protocols differ between the studies behind these lines. ± gives the spread as reported.
# U2AF2: U2AF2 148-342 (Homo sapiens, UniProt P26368)
# UniProt P26368, sequence (whole entry, looked up): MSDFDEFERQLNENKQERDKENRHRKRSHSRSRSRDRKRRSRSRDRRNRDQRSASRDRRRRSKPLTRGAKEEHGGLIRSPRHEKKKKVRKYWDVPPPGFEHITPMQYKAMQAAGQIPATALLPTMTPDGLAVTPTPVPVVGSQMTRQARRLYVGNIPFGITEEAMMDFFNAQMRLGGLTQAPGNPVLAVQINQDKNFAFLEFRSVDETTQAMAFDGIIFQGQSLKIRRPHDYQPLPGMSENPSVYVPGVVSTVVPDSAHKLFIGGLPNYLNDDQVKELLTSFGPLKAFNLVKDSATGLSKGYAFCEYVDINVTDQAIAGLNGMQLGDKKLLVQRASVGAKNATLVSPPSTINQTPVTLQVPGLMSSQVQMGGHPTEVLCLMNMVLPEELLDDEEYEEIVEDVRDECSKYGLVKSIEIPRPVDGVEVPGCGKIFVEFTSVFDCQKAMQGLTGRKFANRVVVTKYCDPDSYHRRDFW
# B1: CD112R ECD 41-172 (human, UniProt Q6DKI7); sequence looked up; chain TPEVWVQVRMEATELSSFTIRCGFLGSGSISLVTVSWGGPNGAGGTTLAVLHPERGIRQWAPARQARWETQSSISLILEGSGASSPCANTTFCCKFASFPEGSWEACGSLPPSSDPGLSAPPTPAPILRADL
# B2: PTGES3 (Homo sapiens, UniProt Q15185); sequence looked up; chain MQPASAKWYDRRDYVFIEFCVEDSKDVNVNFEKSKLTFSCLGGSDNFKHLNEIDLFHCIDPNDSKHKRTDRSILCCLRKGESGQSWPRLTKERAKLNWLSVDFNNWKDWEDDSDEDMSNFDRFSEMMNNMGGDEDVDLPEVDGADDDSQDSDDEKMPDLE
# B3: EFR3B 716-787 (Homo sapiens, UniProt Q9Y2G0); chain VPAEEITYETLKKAIVDSVAVEEQERERRRQVVEKFQKAPFEEIAAHCGARASLLQSKLNQIFEITIRPPPS
# B4: F10 factor Xa (Homo sapiens, UniProt P00742); light ANSFLEEMKKGHLERECMEETCSYEEAREVFEDSDKTNEFWNKYKDGDQCETSPCQNQGKCKDGLGEYTCTCLEGFEGKNCELFTRKLCSLDNGDCDQFCHEEQNSVVCSCARGYTLADNGKACIPTGPYPCGKQTLER; heavy IVGGQECKDGECPWQALLINEENEGFCGGTILSEFYILTAAHCLYQAKRFKVRVGDRNTEQEEGGEAVHEVEVVIKHNRFTKETYDFDIAVLRLKTPITFRMNVAPACLPERDWAESTLMTQKTGIVSGFGRTHEKGRQSTRLKMLEVPYVDRNSCKLSSSFIITQNMFCAGYDTKQEDACQGDSGGPHVTRFKDTYFVTGIVSWGEGCARKGKYGIYTKVTAFLKWIDRSMKTRGLPKAKSHAPEVITSSPLK
# B5: YWHAH (Homo sapiens, UniProt Q04917); sequence looked up; chain MGDREQLLQRARLAEQAERYDDMASAMKAVTELNEPLSNEDRNLLSVAYKNVVGARRSSWRVISSIEQKTMADGNEKKLEKVKAYREKIEKELETVCNDVLSLLDKFLIKNCNDFQYESKVFYLKMKGDYYRYLAEVASGEKKNSVVEASEAAYKEAFEISKEQMQPTHPIRLGLALNFSVFYYEIQNAPEQACLLAKQAFDDAIAELDTLNEDSYKDSTLIMQLLRDNLTLWTSDQQDEEAGEGN
# B6: Cacng2 203-323 (Mus musculus, UniProt O88602); chain DRHKQLRATARATDYLQASAITRIPSYRYRYQRRSRSSSRSTEPSHSRDASPVGVKGFNTLPSTEISMYTLSRDPLKAATTPTATYNSDRDNSFLQVHNCIQKDSKDSLHANTANRRTTPV
# B7: protein disulfide-isomerase A6, human; sequence looked up; chain LYSSSDDVIELTPSNFNREVIQSDSLWLVEFYAPWCGHCQRLTPEWKKAATALKDVVKVGAVDADKHHSLGGQYGVQGFPTIKIFGSNKNRPEDYQGGRTGEAIVDAALSALRQLVKDRLGGRSGGYSSGKQGRSDSSSKKDVIELTDDSFDKNVLDSEDVWMVEFYAPWCGHCKNLEPEWAAAASEVKEQTKGKVKLAAVDATVNQVLASRYGIRGFPTIKIFQKGESPVDYDGGRTRSDIVSRALDLFSDNAPPPELLEIINEDIAKRTCEEHQLCVVAVLPHILDTGAAGRNSYLEVLLKLADKYKKKMWGWLWTEAGAQSELETALGIGGFGYPAMAAINARKMKFALLKGSFSEQGINEFLRELSFGRGSTAPVGGGAFPTIVEREPWDGRDGELPVEDDIDLSDVELDDLGKDEL
# B8: NFKBIA 67-287 (Homo sapiens, UniProt P25963); sequence looked up; chain KQQLTEDGDSFLHLAIIHEEKALTMEVIRQVKGDLAFLNFQNNLQQTPLHLAVITNQPEIAEALLGAGCDPELRDFRGNTPLHLACEQGCLASVGVLTQSCTTPHLHSILKATNYNGHTCLHLASIHGYLGIVELLVSLGADVNAQEPCNGRTALHLAVDLQNPDLVSLLLKCGADVNRVTYQGYSPYQLTWGRPSTRIQQQLGQLTLENLQMLPESEDEE
# B9: ATG9 1-255 (Saccharomyces cerevisiae, UniProt Q12142); sequence looked up; chain MERDEYQLPNSHGKNTFLSRIFGLQSDEVNPSLNSQEMSNFPLPDIERGSSLLHSTNDSREDVDENDLRVPESDQGTSTEEEDEVDEEQVQAYAPQISDGLDGDHQLNSVTSKENVLETEKSNLERLVEGSTDDSVPKVGQLSSEEEEDNEFINNDGFDDDTPLFQKSKIHEFSSKKSNTIEDGKRPLFFRHILQNNRPQRDTQKLFTSSNAIHHDKDKSANNGPRNINGNQKHGTKYFGSATQPRFTGSPLNNT
# B10: IL18 37-193 C74S/T99C/C104S/C112S/P124C/C163S (Homo sapiens, UniProt Q14116); chain YFGKLESKLSVIRNLNDQVLFIDQGNRPLFEDMTDSDSRDNAPRTIFIISMYKDSQPRGMAVCISVKSEKISTLSSENKIISFKEMNCPDNIKDTKSDIIFFQRSVPGHDNKMQFESSSYEGYFLASEKERDLFKLILKKEDELGDRSIMFTVQNED
# B11: NRP1 (Arabidopsis thaliana); chain MVADKSKKSKIEEKGEEENLEQIDAELVLSIEKLQEIQDDLEKINEKASDEVLEVEQKYNVIRKPVYDKRNEVIQSIPGFWMTAFLSHPALGDLLTEEDQKIFKYLNSLEVEDAKDVKSGYSITFHFTSNPFFEDAKLTKTFTFLEEGTTKITATPIKWKEGKGLPNGVNHDDKKGNKRALPEESFFTWFTDAQHKEDAGDEIHDEVADIIKEDLWSNPLTYFNNDADEEDFDGDDDGDEEGEEDDDDEEEEDGEE
# B12: Imd (Marsupenaeus japonicus, UniProt C6L429); sequence looked up; chain MDNIKTDSAPLGSVSSDLQGENPTRQQRQIYNITGSSGVHIGPVIHNLHGMKPCSQHKPQDMPLKKDVEELLKCSREIEERDKIEVSEHLGSSWKSLGRVMGFSAGQLENMTADHTRNVDRVYEMLNRWHDKEAEDATVARLTQMIIKVKAYHVLKKIAP
# UniProt Q9NWS0, sequence (whole entry, looked up): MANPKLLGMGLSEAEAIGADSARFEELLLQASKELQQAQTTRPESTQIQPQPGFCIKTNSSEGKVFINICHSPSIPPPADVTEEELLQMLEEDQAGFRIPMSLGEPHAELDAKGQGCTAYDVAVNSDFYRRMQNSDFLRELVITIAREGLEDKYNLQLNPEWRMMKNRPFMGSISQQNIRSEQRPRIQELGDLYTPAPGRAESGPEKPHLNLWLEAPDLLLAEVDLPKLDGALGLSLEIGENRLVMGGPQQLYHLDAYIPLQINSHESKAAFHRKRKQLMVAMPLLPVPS
# UniProt P12259, sequence (whole entry, unmodified, looked up): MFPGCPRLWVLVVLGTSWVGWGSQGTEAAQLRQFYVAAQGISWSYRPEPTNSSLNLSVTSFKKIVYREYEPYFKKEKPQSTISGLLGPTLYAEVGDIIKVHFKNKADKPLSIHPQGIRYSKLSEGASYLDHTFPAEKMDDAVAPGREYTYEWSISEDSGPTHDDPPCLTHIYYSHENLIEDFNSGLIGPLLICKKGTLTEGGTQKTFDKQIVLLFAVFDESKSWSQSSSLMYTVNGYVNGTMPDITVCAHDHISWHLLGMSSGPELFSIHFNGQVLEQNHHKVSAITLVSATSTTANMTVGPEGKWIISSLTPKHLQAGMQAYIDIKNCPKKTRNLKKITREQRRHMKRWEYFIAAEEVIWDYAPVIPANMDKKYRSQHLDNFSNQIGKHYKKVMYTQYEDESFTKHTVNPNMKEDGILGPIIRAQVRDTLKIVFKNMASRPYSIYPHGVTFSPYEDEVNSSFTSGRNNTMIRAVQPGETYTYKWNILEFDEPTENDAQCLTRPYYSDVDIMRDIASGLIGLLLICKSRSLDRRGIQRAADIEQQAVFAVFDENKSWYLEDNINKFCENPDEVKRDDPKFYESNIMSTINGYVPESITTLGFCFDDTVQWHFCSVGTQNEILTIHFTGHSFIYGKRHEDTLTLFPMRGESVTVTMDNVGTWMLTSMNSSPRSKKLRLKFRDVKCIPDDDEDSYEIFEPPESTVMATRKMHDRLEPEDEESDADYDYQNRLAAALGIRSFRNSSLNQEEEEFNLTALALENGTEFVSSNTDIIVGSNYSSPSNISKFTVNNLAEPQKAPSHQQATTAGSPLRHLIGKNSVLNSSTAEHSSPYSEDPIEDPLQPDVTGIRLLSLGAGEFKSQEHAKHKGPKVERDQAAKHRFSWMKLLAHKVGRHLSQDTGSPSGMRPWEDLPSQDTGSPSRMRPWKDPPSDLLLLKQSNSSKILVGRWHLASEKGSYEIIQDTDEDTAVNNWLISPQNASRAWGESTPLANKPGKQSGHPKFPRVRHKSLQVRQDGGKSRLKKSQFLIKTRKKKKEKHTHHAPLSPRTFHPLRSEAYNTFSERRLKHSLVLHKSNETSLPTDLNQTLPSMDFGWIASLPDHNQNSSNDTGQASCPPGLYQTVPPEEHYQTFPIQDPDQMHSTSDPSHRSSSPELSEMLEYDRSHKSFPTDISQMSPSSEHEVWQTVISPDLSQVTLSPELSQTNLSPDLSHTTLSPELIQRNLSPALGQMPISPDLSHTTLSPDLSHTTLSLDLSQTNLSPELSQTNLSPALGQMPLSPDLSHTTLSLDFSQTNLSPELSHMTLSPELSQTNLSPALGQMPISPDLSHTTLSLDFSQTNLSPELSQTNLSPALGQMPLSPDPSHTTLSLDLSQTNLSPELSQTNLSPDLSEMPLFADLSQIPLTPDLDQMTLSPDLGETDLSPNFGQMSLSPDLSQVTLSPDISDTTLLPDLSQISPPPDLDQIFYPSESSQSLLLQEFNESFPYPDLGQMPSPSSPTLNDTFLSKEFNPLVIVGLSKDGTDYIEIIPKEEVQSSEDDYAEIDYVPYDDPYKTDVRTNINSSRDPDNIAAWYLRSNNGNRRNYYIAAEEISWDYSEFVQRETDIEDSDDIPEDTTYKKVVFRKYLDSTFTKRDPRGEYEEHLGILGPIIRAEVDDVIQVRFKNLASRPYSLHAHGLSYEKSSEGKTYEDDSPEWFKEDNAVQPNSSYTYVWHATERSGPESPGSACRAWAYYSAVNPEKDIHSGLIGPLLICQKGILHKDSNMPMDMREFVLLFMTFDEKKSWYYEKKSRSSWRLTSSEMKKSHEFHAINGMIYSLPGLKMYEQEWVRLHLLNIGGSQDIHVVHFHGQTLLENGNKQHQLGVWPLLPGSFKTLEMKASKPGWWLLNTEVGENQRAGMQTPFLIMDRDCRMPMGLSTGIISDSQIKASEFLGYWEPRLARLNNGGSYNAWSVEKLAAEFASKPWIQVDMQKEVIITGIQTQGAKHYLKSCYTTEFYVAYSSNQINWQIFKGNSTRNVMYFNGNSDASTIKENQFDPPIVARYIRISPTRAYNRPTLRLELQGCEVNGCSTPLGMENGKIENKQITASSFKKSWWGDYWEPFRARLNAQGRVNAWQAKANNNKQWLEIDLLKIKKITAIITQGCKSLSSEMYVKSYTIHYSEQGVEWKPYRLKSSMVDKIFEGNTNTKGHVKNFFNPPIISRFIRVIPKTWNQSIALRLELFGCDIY
# UniProt Q92692, sequence (whole entry, looked up): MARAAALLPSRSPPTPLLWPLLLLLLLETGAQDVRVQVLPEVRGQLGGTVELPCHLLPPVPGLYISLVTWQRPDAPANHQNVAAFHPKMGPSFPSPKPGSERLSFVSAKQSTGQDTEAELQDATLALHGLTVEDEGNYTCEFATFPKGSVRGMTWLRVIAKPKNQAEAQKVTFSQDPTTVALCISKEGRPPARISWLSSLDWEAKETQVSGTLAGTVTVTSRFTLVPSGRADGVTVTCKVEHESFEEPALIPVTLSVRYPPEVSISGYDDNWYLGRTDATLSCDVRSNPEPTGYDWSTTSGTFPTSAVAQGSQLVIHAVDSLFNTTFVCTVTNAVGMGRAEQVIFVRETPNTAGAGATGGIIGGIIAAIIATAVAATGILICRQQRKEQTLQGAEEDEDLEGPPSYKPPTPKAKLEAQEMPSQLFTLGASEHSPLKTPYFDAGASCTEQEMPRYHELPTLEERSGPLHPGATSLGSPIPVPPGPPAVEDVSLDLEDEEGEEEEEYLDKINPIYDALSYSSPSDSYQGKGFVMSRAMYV
# UniProt P13393, sequence (whole entry, looked up): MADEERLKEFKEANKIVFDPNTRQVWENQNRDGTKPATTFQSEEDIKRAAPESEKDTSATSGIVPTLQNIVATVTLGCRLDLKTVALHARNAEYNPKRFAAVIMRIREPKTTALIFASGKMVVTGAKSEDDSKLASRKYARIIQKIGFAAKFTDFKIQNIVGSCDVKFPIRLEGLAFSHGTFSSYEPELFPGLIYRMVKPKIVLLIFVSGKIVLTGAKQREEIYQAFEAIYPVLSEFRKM
# UniProt P63167, sequence (whole entry, looked up): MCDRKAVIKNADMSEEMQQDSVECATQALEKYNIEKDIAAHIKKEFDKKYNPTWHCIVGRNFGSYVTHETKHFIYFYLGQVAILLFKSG
Molecule,tested on,test,system,setting,how to read,quantity,result
SVCETGSNTEE (KANK1 peptide),"DYNLL1 (Homo sapiens, UniProt P63167)",ITC,peptide,25 °C,,Kd,> 60000 nM
B1 (CD112R ECD 41-172),"NECTIN2 32-350 (Homo sapiens, UniProt Q92692)",SPR,,,,Kd,526 nM
POTE ankyrin domain F (human),CYB5R4 knockout human cells,"PP6 interaction, 3xFLAG-PP6C IP-MS",,concentration not given,baseline: CYB5R4 KO over parental,log2 fold change,0.09
B2 (PTGES3),"HSP90AB1 AMPPNP-bound (Homo sapiens, UniProt P08238)",BLI,,26 °C,,Kd,1330 nM
B3 (EFR3B 716-787),TTC7B/FAM126B FAM126B 1-308,BLI,,,,Kd,0.345 nM
B4 (F10 factor Xa),"factor Va R306Q/R506Q (Homo sapiens, UniProt P12259)","thrombin generation, prothrombinase activity titration",,,,Kd,0.3 ± 0.03 nM
YAGSDSDLDSDDEFVPY (TELO2 483-497 (Homo sapiens); pS491),"PIH1D1 1-180 (Homo sapiens, UniProt Q9NWS0)",ITC,peptide,,,Kd,3100 nM
"UBE2D2 (Homo sapiens, UniProt P62837)","NEDD4 HECT domain, Cy5 N-terminus (Homo sapiens)",MST,,together with: UbV 5 µM,,Kd,271000 ± 70000 nM
B5 (YWHAH),"NEDD4L full length isoform 5, pS342/pS428 (Homo sapiens, UniProt Q96PU5-5)",AUC,,with Ca2+,,Kd,8 nM
B6 (Cacng2 203-323),"DLG4 fragment, pS142 (Homo sapiens)",ITC,,,,Kd,1200 nM
UGUUUCUGC (ssRNA),U2AF2,sequencing of bound RNA,RNA,motif only,,Kd,2830 nM
Cacna1c fragment V2071E (Rattus norvegicus),"CACNA1C IQ motif 1644-1668, fluorescein label (UniProt P15381)",fluorescence polarisation,,,,Kd,230000 ± 20000 nM
B7,CYB5R4 knockout human cells,"PP4 interaction, 3xFLAG-PP4C IP-MS",,concentration not given,baseline: CYB5R4 KO over parental,log2 fold change,-0.47
ENAH EVH1 domain (Homo sapiens),APBB1IP peptide (Homo sapiens),BLI,,,,Kd,25900 nM
AAAAUGUUUUUUUCUAAGA (ssRNA),U2AF2,MST,RNA,,,Kd,7457 ± 31.1 nM
"SDLACRLLGQSMDESGLPQLTSYDCEVNAPIQGSGSGSGSGSRNLLQGEELLRALDQVN (HIF-1α CTAD 776-826 (GS)4 insertion (Homo sapiens, UniProt Q16665); sequence looked up)","Crebbp 340-439 (Mus musculus, UniProt P45481)",fluorescence polarisation,,,,Kd,160 nM
Notch ankyrin domain T50A/E52A/R60A/R107A (Drosophila),"dx (Drosophila melanogaster, UniProt Q23985)",AUC,,,,Kd,12700 nM
B8 (NFKBIA 67-287),RelA/NFKB1 190-321 F309A,ITC,,,,Kd,19 nM
"ramucirumab, partial Asn deamidation","KDR (Homo sapiens, UniProt P35968)",SPR,,,,Kd,0.23 nM
"KLLMIIHDRREFAKFEKEKMNAKWDTQENPIYKSPINNFKNPNYGRKAGL (ITGB1 752-801 (Homo sapiens, UniProt P05556-5); sequence looked up)","Tln2 312-408 Y376A (Mus musculus, UniProt Q71LX4)",NMR titration,,,,Kd,698000 nM
"MBL-A mature, hydroxylysine, hydroxyproline in collagen (Rattus norvegicus, UniProt P19999)",C1S fragment (Homo sapiens),SPR,,together with: CaCl2 140 mM,,Kd,144 nM
B9 (ATG9 1-255),"ATG23 A34E (Saccharomyces cerevisiae, UniProt Q06671)",BLI,,,,Kd,7400 nM
TGGCACTCGGGAGGCAGCGGCGACTTTGGGGAAAGTCAAGTCAATCGGTCC (dsDNA; 5'-amino-C6 primer),"SPT15 full length assumed (Saccharomyces cerevisiae, UniProt P13393)",array,"double-stranded DNA, one strand shown",TBP alone,,Kd,12.9 ± 1.38 nM
"GRGDLGRLKK (TGFB3 260-269; aminocaproic acid, FITC label)","integrin αVβ6 full length, on K562 cells (Homo sapiens)",flow cytometry,peptide,,,Kd,81 nM
B10,"IL18BP (Homo sapiens, UniProt O95998)",SPR,,,,Kd,0.008 nM
B11 (NRP1),"CYCS, heme (Arabidopsis thaliana)",SPR,,,,Kd,12100 nM
B12 (Imd),"Srb2 (Marsupenaeus japonicus, UniProt A0A7D1KMN5)",ITC,,,,Kd,1690 ± 610 nM
YL-1 fragment (Drosophila melanogaster),H2A/H2B dimer (Homo sapiens),ITC,,,,Kd,6300 nM
